Measured values gathered from unrelated publications.
Parts stem from different laboratories: compare values within a part only.

Set 1 — technique: universal PBM; molecule type: double-stranded DNA, one strand shown; medium: in vitro; concentration: not given; reading: higher = stronger binding
Target: Sal-like protein 4, full length isoform B (SALL4, Homo sapiens, UniProt Q9UJQ4-2, residues 1-616)
Setting: 8-mer, flanks averaged, mean of replicates
Target sequence (chain): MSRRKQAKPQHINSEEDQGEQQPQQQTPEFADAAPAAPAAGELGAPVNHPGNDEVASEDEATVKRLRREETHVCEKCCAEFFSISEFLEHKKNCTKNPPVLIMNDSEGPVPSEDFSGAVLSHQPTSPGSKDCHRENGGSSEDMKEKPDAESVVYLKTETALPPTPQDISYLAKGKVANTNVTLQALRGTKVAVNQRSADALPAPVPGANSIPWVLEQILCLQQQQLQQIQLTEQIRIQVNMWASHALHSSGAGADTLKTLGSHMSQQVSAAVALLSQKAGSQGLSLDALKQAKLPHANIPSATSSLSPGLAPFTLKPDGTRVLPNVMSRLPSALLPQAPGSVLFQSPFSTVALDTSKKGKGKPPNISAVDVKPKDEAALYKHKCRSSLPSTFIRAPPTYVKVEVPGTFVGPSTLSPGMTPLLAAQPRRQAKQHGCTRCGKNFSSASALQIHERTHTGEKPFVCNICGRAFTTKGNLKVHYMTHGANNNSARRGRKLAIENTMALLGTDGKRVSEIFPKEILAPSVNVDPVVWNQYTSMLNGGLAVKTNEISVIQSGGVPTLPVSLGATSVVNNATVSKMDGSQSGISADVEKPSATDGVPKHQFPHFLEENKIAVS
| Strand | E-score |
| --- | --- |
| ATCTCTAG | 0.0291 |
| AGATGGGG | -0.196 |
| GCGAGAGC | -0.226 |
| CGAATGTA | 0.149 |
| CCCCATCG | -0.194 |
| AGAATTGC | 0.0583 |
| GCCAATAC | -0.0288 |
| GGTGCAAC | -0.204 |
| AGCCCGAC | -0.323 |
| TAAGCGGA | -0.0649 |
| CATAGGCC | 0.00286 |
| CTAGTACC | -0.052 |
| ATTCTACG | 0.0175 |
| CCGGCTTA | -0.209 |
| GAACGTTA | -0.00564 |
| ATCGTAAT | 0.266 |
| CGTTACAG | -0.151 |
| ACGGGGAT | -0.17 |
| AATTCCCT | 0.0921 |
| CCCTGGCG | -0.332 |

Set 2 — technique: protein binding microarray; molecule type: double-stranded DNA, one strand shown; medium: in vitro; concentration: not given; reference: not given; reading: higher = stronger binding
Target: Histone acetyltransferase KAT6A, both winged helices, GST fusion (KAT6A, Homo sapiens, UniProt Q92794, residues 1-181)
Setting: 8-mer, flanks averaged, mean of 2 arrays, mostly near background
Target sequence (chain): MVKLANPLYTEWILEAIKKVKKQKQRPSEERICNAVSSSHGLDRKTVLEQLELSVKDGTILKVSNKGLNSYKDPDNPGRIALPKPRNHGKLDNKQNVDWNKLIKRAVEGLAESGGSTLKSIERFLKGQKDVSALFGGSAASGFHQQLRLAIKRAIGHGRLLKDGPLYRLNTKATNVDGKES
| Strand | E-score |
| --- | --- |
| AGTAGTAC | 0.0311 |
| GGAGGCAC | -0.00237 |
| AAATCGAT | -0.0596 |
| TGCTGAAA | -0.136 |
| CGGGATGC | 0.221 |
| CACATGAA | -0.113 |
| GCCTTTAA | 0.0134 |
| CCTTGATA | -0.122 |
| GACACACA | 0.0747 |
| CTGATTCC | -0.062 |
| CGACATGC | 0.0825 |
| CACGGCCG | 0.36 |
| GACGCTTA | 0.109 |
| ACTAATCC | 0.0424 |
| GGGGACCA | -0.148 |
| ATGCGCGG | 0.35 |
| CCCTCGGC | 0.149 |
| ATCAACTG | -0.16 |
| GCACGATA | 0.0403 |
| CCTGGCCG | 0.0222 |
| CAGGACGC | 0.111 |
| GCACCGAA | 0.0502 |
| TGGCTTAA | -0.0699 |

Set 3 — technique: RNA Bind-n-Seq; molecule type: RNA; medium: in vitro; concentration: 365 nM; reference: no-protein control; reading: higher = stronger binding
Target: RNA binding protein fox-1 homolog 2, RRM domain, GST-SBP tag (RBFOX2, Homo sapiens, UniProt O43251-10, residues 100-194)
Setting: natural RNA segment, single round, ends assumed
Construct (chain): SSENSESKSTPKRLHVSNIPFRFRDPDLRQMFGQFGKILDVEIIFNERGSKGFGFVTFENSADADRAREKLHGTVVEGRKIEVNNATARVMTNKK
| Strand | RBNS enrichment (R) |
| --- | --- |
| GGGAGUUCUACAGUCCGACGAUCCCGAUUCUGGCUGUCCUAUGUCCAGGAAGAAGCCCAUUUGUUGAGGCUGACCUUCCUGAUCAUACACACACACAGCCCAGCAAAAGCCUCUCCUGAACCAAACAAACCUGUGGAAUUCUCGGGUGCCAA | 0.324 |
| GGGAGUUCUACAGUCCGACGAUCUAGAUUAUUUUCAGAUUUUGGAAUGUUUGCAUAUACAUAAUGAGAUAUUUUGGGAAUAGGACCCGAGCCUAAACACAAAAUUCAUUGAUGUGUCAGUUACACCUUAUCCAUGGAAUUCUCGGGUGCCAA | 0.363 |
| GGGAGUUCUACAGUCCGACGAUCCACAGUGAAGAGAAACUGAAUUGAAUUUAUGCGAGUUUUUCGUUUCUUGUACAUUUGACAACACAUUGAGGAAAACCCUAUAAACAUAAUCAAGAGGGGACAUUUUUCAUUGGAAUUCUCGGGUGCCAA | 0.496 |
| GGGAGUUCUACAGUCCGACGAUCCCUUCCUUCAUCCUUGGGGGUCUCAGGCUGCCCCCAUCAUGGGGGUCUGGGCCCUGCCCACCCUCCUGCCCUCCCCCAGCCACCUGGCUGCAUUUUUGAAGCUGCCUGGCUGGAAUUCUCGGGUGCCAA | 0.242 |
| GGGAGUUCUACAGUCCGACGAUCAUGUCAGGAUCCAGCAAAACUACUGCUUUCUUCUCCAAAGACAUGUGGGAGCCUUCAAUCCUCAGUGGCAUGGGAAACAGCUGAGUACUUGCCCCGUGACUUCAGUUUUCUGGAAUUCUCGGGUGCCAA | 1.63 |
| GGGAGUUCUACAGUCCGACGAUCCUCACAGCUCCUUUCUAGGUCCUUCUUUCCUCAUUGGAAGCAAAGACCUAGCCAACAACAGCACCUCAAUCUGAUACACUCCCGAUGCCACAUUUUUAACUCCUCUCGCUUGGAAUUCUCGGGUGCCAA | 0.731 |
| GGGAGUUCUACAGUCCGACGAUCCUCCUCCUUUGGCAUCCAUUUUUCCAAAGAAGAGUCGAGUCCUCUGAGGUCUGUGCUUGAAAGCCGUCCGAAGGCAUUCUUGUUAGCUUUGCUUUUCUCCCCAUAUCCCAUGGAAUUCUCGGGUGCCAA | 0.299 |
| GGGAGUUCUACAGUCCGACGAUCAAAGAUUGUAGUCAGCAUUUCAUUUGAGAGAAUACAAGAAAUGAAUAAAUCUAUUAGGGCCAGGGCCUGGAGACUGGUUCUAAAACUCACAAAUUGAGGAGUGAAAUAGGUGGAAUUCUCGGGUGCCAA | 1.72 |

Set 4 — technique: RNA Bind-n-Seq; molecule type: RNA; medium: in vitro; concentration: not given; reference: input RNA pool; reading: higher = stronger binding
Target: RING finger protein unkempt homolog, zinc fingers 1-6, GST-SBP tag (UNK, Homo sapiens, UniProt Q9C0B0, residues 30-357)
Setting: RNA with constant flanks, human-mouse chimeric sites, ends assumed
Residues (chain): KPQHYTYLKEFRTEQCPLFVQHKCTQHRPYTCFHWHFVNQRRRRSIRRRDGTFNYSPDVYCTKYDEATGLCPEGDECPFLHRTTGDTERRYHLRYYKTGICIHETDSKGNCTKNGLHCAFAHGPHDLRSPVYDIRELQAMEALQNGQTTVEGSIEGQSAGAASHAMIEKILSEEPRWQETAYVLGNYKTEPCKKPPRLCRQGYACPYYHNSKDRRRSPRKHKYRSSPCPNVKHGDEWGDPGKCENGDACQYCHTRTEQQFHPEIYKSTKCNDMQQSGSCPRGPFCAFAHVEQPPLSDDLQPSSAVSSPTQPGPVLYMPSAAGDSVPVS
| Strand | bound/input enrichment |
| --- | --- |
| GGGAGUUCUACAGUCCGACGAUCGUGCCCUUCUCGCUGCUCCUGCGGGGCAGCUGGGAACCAUUCCGGGACUGGUACCCUGCACACAGCCGCCUCUUCGAUCAAGCUUUCGGGGUGCCCCGGUUGCCCGAGGAGUGGUCGCAGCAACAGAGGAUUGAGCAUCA | 0.0635 ratio |
| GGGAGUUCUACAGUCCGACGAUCCUUAAUGUUAAUAUUUUUGAAUAAAUGAAGCUAAAAUGUCUGCUUUUGGUACUACAUGCAUUAAUAAAAGGUUAAGUUUUGUUUUCCCUCCACUGAAUAUUUAACAUCUCAGAAAAAAACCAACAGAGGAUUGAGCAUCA | 0.601 ratio |
| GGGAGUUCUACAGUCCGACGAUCCACGUGUCUGCAGUACUUGAUGUGGAUUACUCUCCCACUGGGAAGGAAUUUGUGUCUGCCAGCUUUGAUAAGUCUAUUAGAAUCUUUCCUGUAGACAAGAGCCGAAGCAGGGAAGUGUAUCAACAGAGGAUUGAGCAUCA | 0.291 ratio |
| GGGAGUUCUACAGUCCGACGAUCUUCAAAGAAAAGGGCAGCUGUGUCAUUUCAUAAGUAACUCUGGGGGAGGGAAAUUCUGUUCUUUUGUUUUUAGUUUUCCCAGAUAAAGCCAAAGUGUGUGUUGAAGAACUGAGAAAAAAUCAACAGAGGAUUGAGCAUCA | 0.375 ratio |
| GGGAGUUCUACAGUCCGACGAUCCCCUCCCCGGGCCACCCACCCCUCCCGCUCCCAGCGGGAGAUCCAGGUUUCUUCUUAUUUCAUAGCAAAUAAGAAAAAUGUUCUACGCACAUUUUGUCCUCAGUAAAAGAGGGCCUCUGGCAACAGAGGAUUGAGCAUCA | 0.313 ratio |
| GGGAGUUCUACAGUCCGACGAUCAUAGAUGAAAUUGAUGUGGACCAGGAAGGAAUUGCUGAAAUGAUCCUGGAUGAAAAUGCUAUAGCUCAGGUCCCACGCCCUGGCACAUCUUUGAAACUCCCUGGCACUAACCAAACAGGACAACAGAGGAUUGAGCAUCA | 0.326 ratio |
| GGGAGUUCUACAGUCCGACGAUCAUCAAAUACUUUGGGGACAUCAUUAGUGUGGGACAGAGACUGUUGCAAGGAGCUCGGAUCUUAGGGAUUCCAGUUAUCAUAACGGAACAAUACCCCAAAGGUCUUGGCAGCACCGUUCAACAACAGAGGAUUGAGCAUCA | 0.155 ratio |
| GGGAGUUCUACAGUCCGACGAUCCAUGUAUCUGCAGUACUUGAUGUGGACUACUCUCCCACUGGGAAGGAAUUUGUGUCUGCCAGCUUUGAUAAGUCUAUUCGAAUCUUUCCUGUGGACAAGAGCCGAAGCAGGGAAGUGUAUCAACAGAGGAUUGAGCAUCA | 0.369 ratio |

Repeated from above (set 1):
| Strand | E-score |
| --- | --- |
| ATCGTAAT | 0.266 |
| GCGAGAGC | -0.226 |
| CCCCATCG | -0.194 |
| AATTCCCT | 0.0921 |
| CCGGCTTA | -0.209 |
| CGTTACAG | -0.151 |
